Assay results from different studies.
A part holds a random share of what one study measured.
UniProt Q92918, sequence (whole entry, looked up): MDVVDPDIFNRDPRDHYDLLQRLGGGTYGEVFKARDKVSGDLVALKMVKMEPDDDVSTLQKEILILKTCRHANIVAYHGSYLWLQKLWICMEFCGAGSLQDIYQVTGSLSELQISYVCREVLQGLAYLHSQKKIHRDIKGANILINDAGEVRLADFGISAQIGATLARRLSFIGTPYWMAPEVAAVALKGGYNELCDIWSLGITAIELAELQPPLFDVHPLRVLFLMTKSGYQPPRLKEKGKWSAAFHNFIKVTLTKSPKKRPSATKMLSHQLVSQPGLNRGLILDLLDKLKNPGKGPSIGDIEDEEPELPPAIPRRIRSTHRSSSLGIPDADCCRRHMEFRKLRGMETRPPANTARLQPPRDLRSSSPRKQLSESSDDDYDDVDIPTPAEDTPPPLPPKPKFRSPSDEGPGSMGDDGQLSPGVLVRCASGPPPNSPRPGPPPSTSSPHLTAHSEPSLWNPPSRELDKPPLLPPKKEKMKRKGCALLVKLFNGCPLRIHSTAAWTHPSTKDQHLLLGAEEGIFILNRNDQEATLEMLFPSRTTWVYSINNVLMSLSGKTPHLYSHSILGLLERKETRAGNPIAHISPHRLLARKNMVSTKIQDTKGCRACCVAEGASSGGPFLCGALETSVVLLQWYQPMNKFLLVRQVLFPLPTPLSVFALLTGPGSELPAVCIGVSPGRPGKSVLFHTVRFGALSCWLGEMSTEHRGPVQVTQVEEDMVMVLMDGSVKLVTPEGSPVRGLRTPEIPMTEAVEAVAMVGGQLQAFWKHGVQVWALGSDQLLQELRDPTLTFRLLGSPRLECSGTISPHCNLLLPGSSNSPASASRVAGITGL
UniProt O43318, sequence (whole entry, looked up): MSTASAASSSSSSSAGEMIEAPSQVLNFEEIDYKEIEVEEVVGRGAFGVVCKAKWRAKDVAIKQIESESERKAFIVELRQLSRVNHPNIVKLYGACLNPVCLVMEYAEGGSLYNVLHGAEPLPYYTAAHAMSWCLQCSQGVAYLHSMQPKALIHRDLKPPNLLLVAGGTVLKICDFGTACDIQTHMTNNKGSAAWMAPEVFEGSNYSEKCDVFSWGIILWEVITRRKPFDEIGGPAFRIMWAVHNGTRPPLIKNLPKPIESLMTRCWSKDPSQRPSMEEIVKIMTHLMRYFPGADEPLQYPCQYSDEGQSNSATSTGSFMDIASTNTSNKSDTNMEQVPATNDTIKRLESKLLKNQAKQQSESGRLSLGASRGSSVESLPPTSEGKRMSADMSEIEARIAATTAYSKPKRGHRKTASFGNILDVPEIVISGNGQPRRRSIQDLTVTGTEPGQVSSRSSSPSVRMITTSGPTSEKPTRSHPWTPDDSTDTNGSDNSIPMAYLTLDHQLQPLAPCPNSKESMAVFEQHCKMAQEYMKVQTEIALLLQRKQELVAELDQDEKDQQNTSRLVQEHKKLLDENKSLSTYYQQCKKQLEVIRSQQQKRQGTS
UniProt P41743, sequence (whole entry, looked up): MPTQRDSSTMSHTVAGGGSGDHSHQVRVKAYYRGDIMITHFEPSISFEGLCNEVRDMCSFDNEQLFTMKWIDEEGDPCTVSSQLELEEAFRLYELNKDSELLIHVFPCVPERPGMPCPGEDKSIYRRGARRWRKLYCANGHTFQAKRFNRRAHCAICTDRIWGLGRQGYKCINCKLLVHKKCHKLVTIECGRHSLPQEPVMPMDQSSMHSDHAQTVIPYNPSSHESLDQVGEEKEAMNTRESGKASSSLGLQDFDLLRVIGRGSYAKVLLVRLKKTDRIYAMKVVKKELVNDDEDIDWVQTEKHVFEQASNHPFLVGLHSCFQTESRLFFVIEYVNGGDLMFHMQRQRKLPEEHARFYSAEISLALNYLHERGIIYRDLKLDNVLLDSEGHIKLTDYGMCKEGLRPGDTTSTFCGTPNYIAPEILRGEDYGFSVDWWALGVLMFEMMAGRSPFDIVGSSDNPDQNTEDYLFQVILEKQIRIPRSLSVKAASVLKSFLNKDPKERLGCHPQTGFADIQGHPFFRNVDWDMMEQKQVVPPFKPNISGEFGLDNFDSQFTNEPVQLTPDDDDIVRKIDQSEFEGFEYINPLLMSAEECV
UniProt P57058, sequence (whole entry, looked up): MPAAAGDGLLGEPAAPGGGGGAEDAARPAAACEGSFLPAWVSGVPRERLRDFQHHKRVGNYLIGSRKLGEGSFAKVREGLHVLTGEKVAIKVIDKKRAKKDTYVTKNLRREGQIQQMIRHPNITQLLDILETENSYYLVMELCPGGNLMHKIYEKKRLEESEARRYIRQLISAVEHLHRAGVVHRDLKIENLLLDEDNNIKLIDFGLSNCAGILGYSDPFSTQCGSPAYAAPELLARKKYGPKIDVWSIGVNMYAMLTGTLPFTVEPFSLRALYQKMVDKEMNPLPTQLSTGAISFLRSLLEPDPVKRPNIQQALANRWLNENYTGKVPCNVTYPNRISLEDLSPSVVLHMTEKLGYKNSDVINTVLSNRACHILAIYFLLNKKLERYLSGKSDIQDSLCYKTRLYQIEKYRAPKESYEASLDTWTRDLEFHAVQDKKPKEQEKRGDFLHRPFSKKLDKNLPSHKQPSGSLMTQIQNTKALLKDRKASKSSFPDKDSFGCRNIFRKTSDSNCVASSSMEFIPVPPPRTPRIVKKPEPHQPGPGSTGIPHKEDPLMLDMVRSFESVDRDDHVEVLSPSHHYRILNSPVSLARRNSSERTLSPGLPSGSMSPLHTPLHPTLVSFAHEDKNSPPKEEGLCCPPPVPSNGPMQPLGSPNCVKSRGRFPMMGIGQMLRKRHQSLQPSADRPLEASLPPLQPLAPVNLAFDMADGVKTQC
UniProt Q14680, sequence (whole entry, looked up): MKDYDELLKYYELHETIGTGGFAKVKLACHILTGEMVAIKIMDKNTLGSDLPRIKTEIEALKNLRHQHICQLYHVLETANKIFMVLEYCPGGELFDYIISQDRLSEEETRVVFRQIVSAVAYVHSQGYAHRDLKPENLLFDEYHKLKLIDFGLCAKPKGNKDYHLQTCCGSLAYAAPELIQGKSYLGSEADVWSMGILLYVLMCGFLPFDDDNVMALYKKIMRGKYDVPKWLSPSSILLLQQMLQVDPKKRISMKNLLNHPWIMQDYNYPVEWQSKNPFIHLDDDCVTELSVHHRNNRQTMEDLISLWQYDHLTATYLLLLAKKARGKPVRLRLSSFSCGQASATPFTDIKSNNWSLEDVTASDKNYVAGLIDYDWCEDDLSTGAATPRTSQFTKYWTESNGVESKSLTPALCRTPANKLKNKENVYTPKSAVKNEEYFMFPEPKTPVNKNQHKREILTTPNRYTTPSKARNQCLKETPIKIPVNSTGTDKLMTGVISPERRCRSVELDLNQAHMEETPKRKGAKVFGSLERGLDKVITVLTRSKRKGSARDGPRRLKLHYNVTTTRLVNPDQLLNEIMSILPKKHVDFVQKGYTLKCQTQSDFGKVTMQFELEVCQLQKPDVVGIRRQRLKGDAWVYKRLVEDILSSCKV
UniProt P57059, sequence (whole entry, looked up): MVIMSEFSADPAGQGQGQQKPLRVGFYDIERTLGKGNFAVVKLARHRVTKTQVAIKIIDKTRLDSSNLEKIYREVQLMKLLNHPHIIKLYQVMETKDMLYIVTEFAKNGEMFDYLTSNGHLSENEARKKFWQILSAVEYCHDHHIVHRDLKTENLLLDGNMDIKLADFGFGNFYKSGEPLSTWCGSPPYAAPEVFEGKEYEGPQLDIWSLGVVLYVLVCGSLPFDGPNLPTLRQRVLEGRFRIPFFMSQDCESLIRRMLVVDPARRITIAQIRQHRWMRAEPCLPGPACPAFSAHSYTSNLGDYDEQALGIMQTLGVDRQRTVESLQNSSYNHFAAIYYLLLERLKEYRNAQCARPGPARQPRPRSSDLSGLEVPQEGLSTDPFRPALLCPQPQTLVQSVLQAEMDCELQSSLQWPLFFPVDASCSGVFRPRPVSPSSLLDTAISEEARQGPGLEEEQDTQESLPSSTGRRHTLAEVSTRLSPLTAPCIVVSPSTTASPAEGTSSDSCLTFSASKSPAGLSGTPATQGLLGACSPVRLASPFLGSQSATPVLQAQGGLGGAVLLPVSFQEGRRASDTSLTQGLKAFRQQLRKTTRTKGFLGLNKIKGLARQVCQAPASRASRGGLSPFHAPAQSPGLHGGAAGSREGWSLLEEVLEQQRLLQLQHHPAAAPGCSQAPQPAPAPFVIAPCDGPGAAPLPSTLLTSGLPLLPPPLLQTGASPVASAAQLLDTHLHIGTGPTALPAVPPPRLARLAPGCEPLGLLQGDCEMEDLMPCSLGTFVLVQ

Set 1
Structure (SMILES): CS(=O)(=O)N1CCCC(NC(=O)[C@H](CCC2CCCCC2)NC(=O)c2ccc(CNC(=O)c3cnc4ccccn34)cc2)C1 (stereo partly shown)
Concentration: 0.1 µM
target	observed	technique	remaining binding [%]
DYRK1B (Homo sapiens, UniProt Q9Y463)	cell-free assay	competition with immobilised ligand	100
DMPK (Homo sapiens, UniProt Q09013)	cell-free assay	competition with immobilised ligand	98
CAMK2D (Homo sapiens, UniProt Q13557)	cell-free assay	competition with immobilised ligand	84
CDK18 (Homo sapiens, UniProt Q07002)	cell-free assay	competition with immobilised ligand	100
Aurora kinase C (AURKC, Homo sapiens, UniProt Q9UQB9)	cell-free assay	competition with immobilised ligand	98
MAP4K1 (Homo sapiens, UniProt Q92918)	cell-free assay	competition with immobilised ligand	95
KIT (Homo sapiens, UniProt P10721, L576P)	cell-free assay	competition with immobilised ligand	55
MELK (Homo sapiens, UniProt Q14680)	cell-free assay	competition with immobilised ligand	100
PTK2 (Homo sapiens, UniProt Q05397)	cell-free assay	competition with immobilised ligand	92
BMPR1A (Homo sapiens, UniProt P36894)	cell-free assay	competition with immobilised ligand	94
PRKCI (Homo sapiens, UniProt P41743)	cell-free assay	competition with immobilised ligand	94
CAMKK2 (Homo sapiens, UniProt Q96RR4)	cell-free assay	competition with immobilised ligand	88
STK17B (Homo sapiens, UniProt O94768)	cell-free assay	competition with immobilised ligand	83
SIK1 (Homo sapiens, UniProt P57059)	–	competition binding	92
SGK2 (Homo sapiens, UniProt Q9HBY8)	cell-free assay	competition with immobilised ligand	100

Set 2
SMILES: CC(C)n1cnc(-c2ccc(F)cc2)c1-c1ncc(C(=O)Nc2ccc(N3CCN(C)CC3)cc2)[nH]1
Technique: phase 2a trial
Host: idiopathic pulmonary fibrosis patients
dose	setting	patients with osteoporosis [%]
30 mg once daily	grade 3 emergent event	0
30 mg once daily	grade 4 emergent event	0
all arms pooled	grade 3 emergent event	0
30 mg once daily	grade 5 emergent event	0
60 mg once daily	grade 2 emergent event	0
30 mg once daily	grade 1 emergent event	0
60 mg once daily	grade 4 emergent event	0

Set 3
Structure (SMILES): CN1CCN(C(=O)c2ccc(NC(=O)Nc3ccc(N(C)c4ccnc(Nc5ccc(CS(C)(=O)=O)cc5)n4)cc3)cc2)CC1
Technique: competitive binding panel
Concentration: 1 µM
Relative to: vehicle
target	measured	remaining binding [%]
TAOK1 (Homo sapiens, UniProt Q7L7X3)	–	71
MAP3K7 (Homo sapiens, UniProt O43318)	TAK1	25
SRPK2 (Homo sapiens, UniProt P78362)	–	80
STK33 (Homo sapiens, UniProt Q9BYT3)	–	92
HUNK (Homo sapiens, UniProt P57058)	–	35

Set 4
Target: Tyrosine-protein kinase SYK (SYK, Homo sapiens, UniProt P43405)
Observed: enzyme activity
Action: inhibitor
Concentration: 0.5 µM
Relative to: control
SMILES	remaining activity [%]
CCN(CC)CCCCN1c2ccccc2Oc2ccc(Cl)cc21	97.6
O=c1c(-c2ccc(F)cc2)c(-c2ccncc2)[nH]n1-c1ccc(Cl)cc1	98.9
CCCCc1c(-c2ccc(O)cc2)[nH]c2nccnc12	53.5
O=C(c1ccccc1)c1ccc(N2CCOCC2)cc1O	96.6
COc1cc2c(N3CCN(C(=O)Nc4ccc(OC(C)C)cc4)CC3)ncnc2cc1OCCCN1CCCCC1	102
CC(C)(C)c1nc2c3cc[nH]c(=O)c3c3cc(F)ccc3c2[nH]1	79
Clc1ccc(Nc2nnc(Cc3ccncc3)c3ccccc23)cc1	114
CC(C)n1cnc2c(Nc3cccc(Cl)c3)nc(NCCO)nc21	85.1
FC(F)(F)c1ccc(/C=C/c2nc(COc3ccc(CCCCn4ccnn4)cc3)co2)cc1	97.4
C[C@@H](N)[C@H]1CC[C@H](C(=O)Nc2ccncc2)CC1	101
N#CC(c1ccnc(NCCc2cccnc2)n1)c1nc2ccccc2s1 (stereo not shown)	92.4
NC(=O)c1cccc(-c2cc(Nc3ccc(OC(F)(F)F)cc3)ncn2)c1	99.9
O=Nc1c(-c2c(O)[nH]c3ccccc23)[nH]c2ccccc12	58.5

A few entries again (set 4):
SMILES	remaining activity [%]
CC(C)(C)c1nc2c3cc[nH]c(=O)c3c3cc(F)ccc3c2[nH]1	79
O=Nc1c(-c2c(O)[nH]c3ccccc23)[nH]c2ccccc12	58.5
